Results from different studies.
Lines come from different studies, so protocols differ. Several values in a cell are separate wells, animals, samples, runs or records.
rep main protease: Replicase polyprotein 1ab, main protease (rep, Severe acute respiratory syndrome coronavirus 2, UniProt P0DTD1)

| Compound | target | test | test system | conditions | measurement | result |
| --- | --- | --- | --- | --- | --- | --- |
| COC(=O)[C@H](C)NC(=O)c1ccccc1[Se][Se]c1ccccc1C(=O)N[C@@H](C)C(=O)OC | rep main protease | enzyme activity, inhibitor |  | 40 µM, mean of repeats | inhibition | 106% |
| O=C(NC1CCC(F)(F)CC1)C(c1cncnc1)N(C(=O)C(F)Cl)c1ccc(OC(F)(F)F)cc1 (stereo not drawn) | rep main protease | enzyme activity, inhibitor |  | 11 nM | inhibition | 5.09% |
| CNC(=O)C[C@H](Cc1ccncc1)NC(=O)[C@@H](Cc1cccc(Br)c1)NC(=O)[C@@H](N)Cc1cccc(F)c1 | rep main protease | 3CL protease activity |  | 0.04576 µM | remaining activity | 85.2% |
| COc1cc(C(=O)O)ccc1C1=NN(c2ccc(C#N)c(Cl)c2)C(C)C1 (stereo not drawn) | Replicase polyprotein 1ab, nsp14 methyltransferase (rep, Severe acute respiratory syndrome coronavirus 2, UniProt P0DTD1) |  |  |  | lipophilic ligand efficiency | 1.2 |
| O=C(O[C@H]1Cc2c(O)cc(O)cc2O[C@@H]1c1cc(O)c(O)c(O)c1)c1cc(O)c(O)c(O)c1 | rep main protease | surface plasmon resonance |  |  | Rmax | 47.4 RU |
| O=C(Oc1cncc(Cl)c1)c1cc2ccccc2[nH]1 | rep main protease | inhibitor, biochemical |  |  | kinact/Ki | 7600 M⁻¹ s⁻¹ |
| O=C(NC1CCC(F)(F)CC1)C(c1cncnc1)N(C(=O)C(F)Cl)c1ccc(-c2cncs2)cc1 (stereo not drawn) | rep main protease | enzyme activity, inhibitor |  | 25 µM | inhibition | 102% |
| CC(=O)N[C@H](Cc1ccc(O)cc1)C(=O)N[C@@H](CCCNC(=N)N)C(=O)N[C@@H](Cc1ccccc1)C(=O)N[C@H]1CCC[C@@H]1C(=O)N[C@@H](CCCNC(=N)N)C(=O)N[C@@H](CC(N)=O)C(=O)N[C@H]1CCC[C@@H]1C(=O)N[C@H](C(=O)N[C@@H](Cc1ccccc1)C(=O)N[C@H]1CCC[C@@H]1C(=O)N[C@@H](Cc1ccccc1)C(=O)N[C@@H](Cc1ccc(O)cc1)C(=O)N[C@H]1CCC[C@@H]1C(=O)N[C@H](C(=O)N[C@@H](CC(=O)O)C(N)=O)[C@@H](C)O)C(C)C | rep main protease | binding, SPR |  | pH 7.6 | kon | 6.52e+07 M⁻¹ s⁻¹ |
| O=c1c2cccc([N+](=O)[O-])c2[se]n1Cc1ccccc1 | rep main protease | thermal shift | SARS-CoV-2 | main protease | melting temperature | 49 °C |
| O=C(O[C@@H]1Cc2c(O)cc(O)cc2O[C@@H]1c1cc(O)c(O)c(O)c1)c1cc(O)c(O)c(O)c1 | rep main protease | iodoacetyl biotin labelling | SARS-CoV-2 | increasing concentration | free thiol content | decreased |
| NC(=O)CCC1CCCN(C(=O)c2c[nH]n3c2nc(=O)c2ccccc23)C1 (stereo not drawn) | rep main protease | protease activity, SAMDI-MS |  |  | Hill slope | 1.31 |
| CNC(=O)C[C@H](Cc1ccncc1)NC(=O)[C@@H](Cc1cccc(Br)c1)NC(=O)[C@@H](N)Cc1ccsc1 | rep main protease | 3CL protease activity |  | 0.04576 µM | remaining activity | 74.7% |
| Cc1ccc(O[C@H]2CCN(C)C2)cc1C(=O)N[C@H](C)c1cc(-c2cnn(C)c2)nc2ccccc12 | Replicase polyprotein 1ab, papain-like protease (rep, Severe acute respiratory syndrome coronavirus 2, UniProt P0DTD1) | reporter gene, cell-based |  |  | GFP/mCherry signal ratio | 27.5 and 7.61 and 54.5 and 2.7 and 1.51 and 14.3 |
| CC(C)[C@@H]1CC[C@@H](C)C[C@H]1n1[se]c2ccccc2c1=O | rep main protease | enzyme activity, inhibitor |  | 40 µM | inhibition | 102% |
| CC(=O)Nc1ccc(S(=O)(=O)NNc2ncnc3sccc23)cc1 | Replicase polyprotein 1ab, nsp3 macrodomain (rep, Severe acute respiratory syndrome coronavirus 2, UniProt P0DTD1) | enzyme activity, inhibitor, ADPr-Glo |  | concentration not given, SARS-CoV-2 | ADP-ribosylhydrolase inhibition | inhibited |

For quick reference, copied from above:
| Compound | target | test | test system | conditions | measurement | result |
| --- | --- | --- | --- | --- | --- | --- |
| COc1cc(C(=O)O)ccc1C1=NN(c2ccc(C#N)c(Cl)c2)C(C)C1 (stereo not drawn) | Replicase polyprotein 1ab, nsp14 methyltransferase (rep, Severe acute respiratory syndrome coronavirus 2, UniProt P0DTD1) |  |  |  | lipophilic ligand efficiency | 1.2 |
